Published values gathered from unrelated publications.
Each numbered part is a random draw from the data of one study; scales do not carry over between parts. Positions count from the first letter of the parent shown.

Sample 1
Target: CCNE1, cyclin fold, Cln2 fusion (human)
Method: yeast growth competition, sequencing
Medium: yeast
Setting: weak parent motif
Reference: not given
Direction: higher = stronger binding
Starting sequence: WEE1 docking peptide (human); HKTFRKLRLFDTP
For `HETFRKLRLFDTP [K2E]`, “normalised enrichment score” read 0.674.
`WKTFRKLRLFDTP [H1W]`: “normalised enrichment score” 1.58.
`HKTFRKRRLFDTP [L7R]` — result for “normalised enrichment score”: -0.644.
Under “normalised enrichment score”, `HKIFRKLRLFDTP [T3I]` is recorded as 0.972.
`HKNFRKLRLFDTP [T3N]`: “normalised enrichment score” -0.76.
`HKTFRKLRLFDTL [P13L]` — result for “normalised enrichment score”: 0.33.
For `NKTFRKLRLFDTP [H1N]`, “normalised enrichment score” read 0.839.
`HKDFRKLRLFDTP [T3D]` — result for “normalised enrichment score”: 0.524.

Sample 2
Target: Interferon regulatory factor 5, full length, phosphomimetic (IRF5, Homo sapiens, UniProt Q13568-2, residues 1-514, K96S/S451D/S453D/S456D/S462D)
Method: protein-binding microarray
Molecule type: double-stranded DNA, one strand shown
Medium: in vitro
Tested at: 250 nM
Setting: 60-bp whole probe
Together with: salmon DNA 0.4 mg/ml
Reference: random background probes
Direction: higher = stronger binding
Shared flanks, not repeated: GCCTAGCAC … GTCTTGATTCGCTTGACGCTGCTG
With `TCAGCTTTCTTTTATGCACTGTGCTAG` the log fluorescence was 1.65 z-score.
For `GACGGTTTCCATTCCCTGACGTGCTAG`, the log fluorescence was 0.93 z-score.
`GACGGACTGGGTTACGGGACGTGCTAG` has a log fluorescence of -0.441 z-score.
For `TTAGGTATCCGTATCCTTTAGTGCTAG`, the log fluorescence was 0.279 z-score.
`GACGGTATCCTTCTCCTGACGTGCTAG` gave a log fluorescence of 0.0418 z-score.
With `ATCTCTTTCCTTACTTCCCAGTGCTAG` the log fluorescence was 1.4 z-score.
`TAAGATTTCAGTATCGATTAGTGCTAG` gave a log fluorescence of 8.42 z-score.
For `GACGGACTGCTACTGGTGACGTGCTAG`, the log fluorescence was -0.346 z-score.
`CTTTTTTTTTTTTTTTTTTGGTGCTAG` has a log fluorescence of 1.13 z-score.
With `TTAGGTTTCGGGTTTCGGTTAGTGCTA` the log fluorescence was 10 z-score.
With `CTAATATTCTGCTTTGCAATGTGCTAG` the log fluorescence was 0.513 z-score.
`TTACAACTGAGTCTCGATTAGTGCTAG` gave a log fluorescence of 1.08 z-score.

Sample 3
Target: RNA binding protein fox-1 homolog 2, RRM domain, GST-SBP tag (RBFOX2, Homo sapiens, UniProt O43251-10, residues 100-194)
Method: RNA Bind-n-Seq
Molecule type: RNA
Medium: in vitro
Tested at: 365 nM
Setting: natural RNA segment, single round, ends assumed
Reference: no-protein control
Direction: higher = stronger binding
Target sequence (chain): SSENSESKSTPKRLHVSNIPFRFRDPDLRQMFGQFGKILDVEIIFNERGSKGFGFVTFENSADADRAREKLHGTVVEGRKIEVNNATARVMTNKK
For `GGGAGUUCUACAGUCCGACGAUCCCACGGAUUUCUGCACACUCUGGGUCUGUGCUGGUGGAACAUUGCCAAUCAGUUCUUAAUGAGGCACCUGUGUGUAAAUACAUGCUUGGUCUUCUCUGCAGAGAACUGAGUGGAAUUCUCGGGUGCCAA`, “RBNS enrichment (R)” read 0.664.
`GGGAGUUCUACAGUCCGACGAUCGGCAAGUCUCAGGGGAAGCUCAUGUCUUUCUGCUUUACAAAGUGCUUCAAGCGUCAGCUCCAAGUGUCCUUAUGUCAGCAGGAUUUGUUUCCUUCUAGUCCCCCCCCCCCUGGAAUUCUCGGGUGCCAA` — result for “RBNS enrichment (R)”: 0.258.
Under “RBNS enrichment (R)”, `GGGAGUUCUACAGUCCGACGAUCGGGUACAGGGUUCCCAGCCUCAGGUUCCUGGAGGCCAAUGUCCAGCAAGAUCAUGCCUUCUCUGUCUGGAAGAGGCAACAGUUUGGAGAUCCUGUCAUCAUGGGACGUCAUGGAAUUCUCGGGUGCCAA` is recorded as 0.439.
`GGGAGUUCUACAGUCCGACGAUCAAUGACUUACUGUGGAUAACAAAGAUAUCUUUUCUUUAGAGAACUGAAAAGAGAGGAAAGAAUAUAACGUGAAAUGCUAGAUUUGACCUCCUCCCUGUUAUUUCCAAGUAUGGAAUUCUCGGGUGCCAA`: “RBNS enrichment (R)” 0.371.
`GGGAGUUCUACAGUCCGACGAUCUAAUUUAUUUUGUCGAAUUUUUAUUAUUUGUUUUCCCGCCAAGCGGAAAAGGUUUUAUUUUGUAAUUAUUGUGAUUUCCCGUGGCCCCAGCCUGGCCCAGCUCCCCCGGGUGGAAUUCUCGGGUGCCAA`: “RBNS enrichment (R)” 0.927.
`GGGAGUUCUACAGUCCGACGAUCCUCUGCUGCAUGGGACUGGGCCAGCCCAGCCCUCUGAAGUCUGGAGCGCCACAUGUUCCCUAUAAGGCCUGAAGCCCACAGCCCUGAAACAGUGGGGCCAGCUGCCCUGGUGGAAUUCUCGGGUGCCAA`: “RBNS enrichment (R)” 0.168.
`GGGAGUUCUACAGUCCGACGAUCCCUGAGGCCUGUGGGGGCUGCAGGGGAGGAGGAUGUACCUUGUGUCUCUUUCAAGUGCCUUAAUCCGAGCCAGCAGGGCCUUCUGCUUGCCUGCUGCCAUACUGUAUGUAUGGAAUUCUCGGGUGCCAA`: “RBNS enrichment (R)” 0.729.
Under “RBNS enrichment (R)”, `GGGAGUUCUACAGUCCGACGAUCGAAGAUGGGAGCCCUUGCGCUAAAGCUUCAUAGGGUUUUGUUGUUGUUUUCUUGCCUGUUUUAGGGGAGAGCUGAGGCCAGCUGCCCCUCCCCCAAGUGGCCAGGGAGGGUGGAAUUCUCGGGUGCCAA` is recorded as 0.668.

Further values, each from its own experiment
The fold induction of `PhoQ, residues 284 288 289 292 302 303 SNSSNI` is reported as 5.52 (PhoP, residues 12 14 15 18 19 LHATL (Escherichia coli, UniProt P23836); Sort-seq, item: YFP reporter; E. coli; PhoQ-PhoP variant library, together with: 10 µM Mg2+; reference: high Mg2+ state, higher = stronger signaling).
